Published values from different studies.
UniProt P04062, sequence (whole entry, unmodified, looked up): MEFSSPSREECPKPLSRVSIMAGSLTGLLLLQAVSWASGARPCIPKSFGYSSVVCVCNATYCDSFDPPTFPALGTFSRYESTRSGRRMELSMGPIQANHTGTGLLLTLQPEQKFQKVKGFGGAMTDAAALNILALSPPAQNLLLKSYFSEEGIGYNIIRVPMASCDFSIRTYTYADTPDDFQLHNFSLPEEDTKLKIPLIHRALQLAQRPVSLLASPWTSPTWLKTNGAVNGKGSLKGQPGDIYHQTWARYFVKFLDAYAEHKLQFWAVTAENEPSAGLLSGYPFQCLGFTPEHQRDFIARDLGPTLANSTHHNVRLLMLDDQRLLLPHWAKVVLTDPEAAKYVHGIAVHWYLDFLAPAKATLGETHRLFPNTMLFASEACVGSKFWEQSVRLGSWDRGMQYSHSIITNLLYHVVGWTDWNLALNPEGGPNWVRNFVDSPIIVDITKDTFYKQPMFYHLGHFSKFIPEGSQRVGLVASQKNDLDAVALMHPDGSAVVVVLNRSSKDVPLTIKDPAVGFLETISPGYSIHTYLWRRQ

| Compound | target or system | test | system | setting | scale | measurement | result |
| --- | --- | --- | --- | --- | --- | --- | --- |
| COC1CN([C@H]2CC[C@H]([C@@]3(C)Oc4c(Cl)cc(C(=O)NCc5c(SC)cc(C)[nH]c5=O)c(C)c4O3)CC2)C1 | – | RNA-seq, refers to: AKT3 | human, whole blood | dose not given, 24 h | baseline: pretreatment baseline | log2 fold change | 1.45 |
| O=CC1C(=O)Nc2ccccc21 (stereo not shown) | – | reaction with N-acetyl-lysine, HPLC-MS | – | pH 10.2, with: N-α-acetyl-lysine | – | pseudo-first-order rate constant | 0 h⁻¹ |
| CNS(=O)(=O)Nc1nccc(Cc2c(C)c3ccc(Oc4ncccc4F)cc3oc2=O)c1F | UACC-893 | cell viability | – | 7 days | – | IC50 | > 1000 nM |
| Cc1ncsc1-c1ccc(C(C)NC(=O)C2CC(O)CN2C(=O)C(NC(=O)CCCCCCCCCCN2CCCC(Nc3ncc(Cl)c(Nc4ccccc4S(=O)(=O)C(C)C)n3)C2)C(C)(C)C)cc1 (stereo not shown) | 22Rv1 | RNA-seq, refers to: SEMA4C mRNA | – | concentration not given | baseline: DMSO | log2 fold change | -1.6 |
| OC[C@@H]1[C@@H](O)[C@H](O)[C@@H](O)CN1CCCCCOCC12CC3CC(C1)CC(COCCCCCN1C[C@H](O)[C@@H](O)[C@H](O)[C@H]1CO)(C3)C2 | GBA1 (Homo sapiens, UniProt P04062, R534H) | inhibitor, 4MU-β-D-glucopyranoside | – | with: 4MU-β-D-glucopyranoside | – | IC50 | 340 nM |
| CC(=O)n1cc([C@H]2C=C(C(=O)N3CCN(Cc4ccc5c(c4)OCO5)CC3)O[C@@H](OCc3ccc(CO)cc3)C2)c2ccccc21 | Trypanosoma cruzi | reporter mRNA translation, inhibitor, refers to: capped polyadenylated Renilla luciferase mRNA | cell-free extract | concentration not given | baseline: control RNA | relative translation | 54.3% |
| CN1CCCNC(=O)c2cccc(c2)C(=O)NCCCN(C)CCCNc2cccc3c2C(=O)c2cccc(c2C3=O)NCCC1 | SAS | RNA-Seq, refers to: SCO1 mRNA | – | 1 µM, 6 h | baseline: untreated cells | log2 fold change | -0.53 |
| CC(C)c1ccc(N(C)c2ccc3c(c2)OCC[C@H]3CNc2cnccc2C(=O)O)cc1 | OCUM1 | cell growth or viability, ATP luminescence | – | 7 days | – | IC50 | 7.79 nM |
| C=CC(=O)Nc1cccc(Cn2ncc3cnc(Nc4cnn(CCOC)c4)nc32)c1 | DMPK human | binding, KINOMEscan | – | 100 nM | lower = stronger binding | percent of control | 89% |
| CC(=O)[O-].O.[Cu+2].[O-]c1ccc(Br)cc1C=NCCN1CCOCC1 | – | superoxide scavenging | – | 40 µM | – | inhibition | 5.42% |
| CCOc1cncc(-c2ccc(NC(=O)C3(c4ccnc(NS(=O)(=O)C5CC5)n4)CCOCC3)nc2)n1 | KLE | cell proliferation, CellTiter-Glo | – | 72 h | – | IC50 | 10000 nM |
| COc1ccc(CCNCc2ccc(OCc3ccc(Cl)nc3)c(OC)c2)cc1OC | Trypanosoma cruzi | reporter mRNA translation, inhibitor, refers to: capped polyadenylated Renilla luciferase mRNA | cell-free extract | concentration not given | baseline: control RNA | relative translation | 109% |
| Nc1ncc(-c2cc(-c3cnn(CC(F)(F)F)c3)ncc2F)nc1C(=O)NC1CNCC(F)C1 (stereo not shown) | ERBB3 | KINOMEscan | – | 1 µM | baseline: DMSO control | remaining binding | 100% |

Some of these lines once more:
| Compound | target or system | test | system | setting | scale | measurement | result |
| --- | --- | --- | --- | --- | --- | --- | --- |
| CN1CCCNC(=O)c2cccc(c2)C(=O)NCCCN(C)CCCNc2cccc3c2C(=O)c2cccc(c2C3=O)NCCC1 | SAS | RNA-Seq, refers to: SCO1 mRNA | – | 1 µM, 6 h | baseline: untreated cells | log2 fold change | -0.53 |
| CNS(=O)(=O)Nc1nccc(Cc2c(C)c3ccc(Oc4ncccc4F)cc3oc2=O)c1F | UACC-893 | cell viability | – | 7 days | – | IC50 | > 1000 nM |
